Experimental data from different studies.
Each line is one published result; not all experiments were run side by side. Numbers after ± are the reported error.

With `CO[C@H]1O[C@@H]2CO[C@@](C)(C(=O)O)O[C@@H]2[C@H](O)[C@H]1O` (single isomer, unassigned) the IC50 was 0.2 µM (human IgM WEA; precipitation, inhibitor, quantitative precipitin inhibition; added: agar).
With `CC(C)=CCc1c(O)cc(/C=C/c2ccc(O)cc2)cc1O` the IC50 was 0.025 µg/mL (NF-κB (human); reporter gene, inhibitor; SW1353; added: PMA).
With `CC(C)(CNC(=O)c1cccc(-c2noc(C(F)(F)F)n2)c1)c1coc(-c2ccccc2)n1` the IC50 was greater than 0.8 µM (class IIa HDACs; enzyme activity, inhibitor; multiple cancer cell lines; summary value).
`COc1cc(O)cc(/C=C/c2ccccc2)c1` gave an IC50 of 17 µg/mL (NF-κB (human); reporter gene, inhibitor; SW1353; added: PMA).
`O=C(/C=C/c1ccc(Cn2cc(Cn3cnc4ccc(Br)cc4c3=O)nn2)cc1)NO` gave an IC50 of 0.635 µM (HDAC; enzyme activity, inhibitor, fluorogenic; HeLa nuclear extract; 30 min, 37 °C).
`O=C(NO)c1ccc(CN2c3ccccc3Oc3cc(C(=O)Nc4ccc(C(=O)c5ccccc5)cc4)ccc32)cc1` gave an IC50 of 1.91 ± 0.76 µM (HeLa nuclear HDACs; enzyme activity, inhibitor; added: Boc-Lys(Ac)-AMC).
The IC50 of `Clc1cccc(Nc2nnc(-c3ccccc3)c3ccccc23)c1` is reported as 4 µM (phosphodiesterase human; cGMP hydrolysis, fluorescence polarization; HT-29 cell lysate).
With `O=C(Nc1ccccc1)C1CCN(Cc2ccccc2)C1` (centres unmarked) the IC50 was 17.6 ± 2.4 µM (Nav1.4, Pelophylax lessonae; sodium current, use-dependent blocker, vaseline gap voltage clamp; skeletal muscle fibres; 2 Hz pulse trains).
`Cc1ccc2ncn(Cc3cn(Cc4ccc(C(=O)NO)cc4)nn3)c(=O)c2c1` gave an IC50 of 0.425 µM (HDAC; enzyme activity, inhibitor, fluorogenic; HeLa nuclear extract; 30 min, 37 °C).
With `Oc1ccc(/C=C/c2ccccc2)cc1O` the IC50 was greater than 25 µg/mL (NF-κB (human); reporter gene, inhibitor; SW1353; added: PMA).
The IC50 of `O=C(NO)c1ccc(Cn2cc(Cn3cnc4ccc(Cl)cc4c3=O)nn2)cc1` is reported as 0.217 µM (HDAC; enzyme activity, inhibitor, fluorogenic; HeLa nuclear extract; 30 min, 37 °C).
`Oc1cccc(CCc2ccccc2)c1` gave an IC50 of greater than 25 µg/mL (NF-κB (human); reporter gene, inhibitor; SW1353; added: PMA).
For `O=C(NO)c1ccc(Cn2cc(Cn3cnc4cc(Br)ccc4c3=O)nn2)cc1`, the IC50 was 0.142 µM (HDAC; enzyme activity, inhibitor, fluorogenic; HeLa nuclear extract; 30 min, 37 °C).
`OCCNCCO` has an IC50 of 2500 µM (neuronal nicotinic acetylcholine receptor rat; ACh-evoked current, antagonist, whole-cell voltage clamp; rat intracardiac neurons; holding -90 mV, added: ACh 100 µM).
The IC50 of `Cc1cccc(C)c1NC(=O)C1CCN(Cc2ccccc2)C1` (racemic) is reported as 5.7 ± 0.1 µM (Nav1.4, Pelophylax lessonae; sodium current, use-dependent blocker, vaseline gap voltage clamp; skeletal muscle fibres; 2 Hz pulse trains).
The IC50 of `CC[C@H](C(=O)N1CCCC[C@H]1C(=O)O[C@H](CCc1ccc(OC)c(OC)c1)c1cccc(OCCN2CCOCC2)c1)c1cc(OC)c(OC)c(OC)c1` is reported as 0.0033 µM (YFP-LID fusion; protein degradation, flow cytometry; NIH3T3 expressing YFP-LID).
For `Oc1ccc(/C=C/c2cc(O)cc(O)c2)cc1`, the IC50 was 18.5 µg/mL (NF-κB (human); reporter gene, inhibitor; SW1353; added: PMA).
`Cc1cccc(C)c1NC(=O)C1CCCN(Cc2ccccc2)C1` (centres unmarked) has an IC50 of 12.5 ± 0.8 µM (Nav1.4, Pelophylax lessonae; sodium current, use-dependent blocker, vaseline gap voltage clamp; skeletal muscle fibres; 2 Hz pulse trains).
`NCc1cccc(C2CCN(C(=O)c3cccc(NC(=O)C(=O)C4(O)CCC4)c3)CC2)c1` gave an IC50 of 0.439 µM (tryptase, human; enzyme activity, inhibitor; HMC1; 2 h, added: A23187 1 µM).
For `O=C(NO)c1ccc(CN2c3ccccc3Oc3ccc(C(=O)Nc4ccccc4)cc32)cc1`, the IC50 was 0.11 ± 0.02 µM (HeLa nuclear HDACs; enzyme activity, inhibitor; added: Boc-Lys(Ac)-AMC).
With `CC(C)/C=C/c1c(O)cc(/C=C/c2ccc(O)cc2)cc1O` the IC50 was 18 µg/mL (NF-κB (human); reporter gene, inhibitor; SW1353; added: PMA).
`Cc1cc(C)c(C)c(NC(=O)C2CCN(Cc3ccccc3)C2)c1C` (centres unmarked) gave an IC50 of 2.2 ± 0.1 µM (Nav1.4, Pelophylax lessonae; sodium current, use-dependent blocker, vaseline gap voltage clamp; skeletal muscle fibres; 10 Hz pulse trains).
`NCc1cccc(C2CCN(C(=O)c3cccc(OCC(=O)C4(O)CCC4)c3)CC2)c1` has an IC50 of 0.433 µM (tryptase, human; enzyme activity, inhibitor; HMC1; 2 h, added: A23187 1 µM).

Repeated from above:
`Cc1ccc2ncn(Cc3cn(Cc4ccc(C(=O)NO)cc4)nn3)c(=O)c2c1` gave an IC50 of 0.425 µM (HDAC; enzyme activity, inhibitor, fluorogenic; HeLa nuclear extract; 30 min, 37 °C).
With `Oc1ccc(/C=C/c2ccccc2)cc1O` the IC50 was greater than 25 µg/mL (NF-κB (human); reporter gene, inhibitor; SW1353; added: PMA).
